Published values pooled from the literature.
Each numbered part is a random draw from the data of one study; scales do not carry over between parts. Positions count from the first letter of the parent shown.
UniProt P16234, sequence (whole entry, looked up): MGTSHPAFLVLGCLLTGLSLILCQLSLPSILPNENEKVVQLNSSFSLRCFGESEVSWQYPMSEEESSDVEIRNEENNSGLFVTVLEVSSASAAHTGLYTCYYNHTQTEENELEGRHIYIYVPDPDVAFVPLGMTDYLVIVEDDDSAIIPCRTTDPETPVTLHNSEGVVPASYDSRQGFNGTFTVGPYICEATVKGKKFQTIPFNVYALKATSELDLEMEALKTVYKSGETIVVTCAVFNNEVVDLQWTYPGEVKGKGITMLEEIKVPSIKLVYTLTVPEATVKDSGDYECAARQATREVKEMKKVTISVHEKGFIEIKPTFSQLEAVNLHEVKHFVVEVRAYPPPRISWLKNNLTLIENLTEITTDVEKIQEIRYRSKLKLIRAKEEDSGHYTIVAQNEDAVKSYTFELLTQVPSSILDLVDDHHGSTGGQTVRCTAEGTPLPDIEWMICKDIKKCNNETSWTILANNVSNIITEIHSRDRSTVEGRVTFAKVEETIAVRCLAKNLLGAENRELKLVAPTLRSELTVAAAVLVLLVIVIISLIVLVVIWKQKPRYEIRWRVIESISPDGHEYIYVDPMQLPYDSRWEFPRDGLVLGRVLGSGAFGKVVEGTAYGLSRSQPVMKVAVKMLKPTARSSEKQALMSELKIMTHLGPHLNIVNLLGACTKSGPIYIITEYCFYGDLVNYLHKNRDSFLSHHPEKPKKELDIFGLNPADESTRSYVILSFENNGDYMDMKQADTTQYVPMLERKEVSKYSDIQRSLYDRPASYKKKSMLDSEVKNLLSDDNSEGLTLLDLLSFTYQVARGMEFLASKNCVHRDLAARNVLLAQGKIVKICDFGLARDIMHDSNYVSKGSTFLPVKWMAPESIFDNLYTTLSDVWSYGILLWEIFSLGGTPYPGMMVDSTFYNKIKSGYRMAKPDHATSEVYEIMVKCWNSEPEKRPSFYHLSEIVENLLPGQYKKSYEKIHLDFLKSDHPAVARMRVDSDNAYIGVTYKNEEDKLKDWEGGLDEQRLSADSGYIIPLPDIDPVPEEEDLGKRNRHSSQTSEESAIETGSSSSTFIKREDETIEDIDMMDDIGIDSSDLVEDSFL

Study 1
Target: CRIPT, C-terminal peptide
Technique: DHFR complementation, deep sequencing
Medium: yeast
Notes: single substitutions, model-inferred values
Relative to: wild type
Reading: higher = weaker binding
Measurement: binding free energy change
Starting sequence: ERBIN, PDZ domain 1 (human); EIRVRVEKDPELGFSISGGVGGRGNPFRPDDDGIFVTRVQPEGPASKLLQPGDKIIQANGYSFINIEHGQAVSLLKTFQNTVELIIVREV; partner TKNYKQTSV
G18M: 1.05 kcal/mol
T77C: 0.0717 kcal/mol
G19N: 1.35 kcal/mol
P26W: 0.676 kcal/mol
S17C: -0.0145 kcal/mol
S46H: 0.00646 kcal/mol
G24F: 1.27 kcal/mol
F35I: 0.783 kcal/mol

Study 2
Target: ABI1, truncated, D143A, DHFR fusion (Arabidopsis thaliana, UniProt P49597)
Technique: DHFR PCA, dose-response
Medium: yeast
Notes: Hill fit, mean, not affinity
Together with: (+)-ABA, dose series
Reading: lower = more sensitive
Measurement: ABA EC50
Starting sequence: PYL1, truncated, DHFR fusion (Arabidopsis thaliana, UniProt Q8VZS8); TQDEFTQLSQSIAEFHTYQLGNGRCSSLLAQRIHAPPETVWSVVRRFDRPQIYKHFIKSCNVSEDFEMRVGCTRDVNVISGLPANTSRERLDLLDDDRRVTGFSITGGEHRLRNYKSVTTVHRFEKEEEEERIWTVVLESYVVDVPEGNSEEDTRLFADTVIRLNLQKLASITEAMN
K116W: 732 µM
K58V: 23.9 µM
E152N: 3.45 µM
R111H: 116 µM
H34Y: 5.05 µM
V145H: 209 µM
S171Q: 1.29 µM
E129M: 2.69 µM

Study 3
Target: TAR DNA-binding protein 43, full length, His tag (TARDBP, Homo sapiens, UniProt Q13148, residues 1-414)
Technique: RNA Bind-n-Seq
Form: RNA
Medium: in vitro
Tested at: 20 nM
Notes: 6-mer, flanks averaged, single round
Together with: 150 mM LiCl
Relative to: input library
Reading: higher = stronger binding
Measurement: 6-mer enrichment (R)
CCUUUG: 1.04
AUGGUA: 1.06
CUAAAA: 0.855
AUCGAG: 0.88
CUGCCA: 0.92
CCUGGG: 0.991
CAUUAA: 0.894
GCACAA: 0.91

Other studies, line by line
O=C1NC(=O)/C(=C/c2ccc3c(c2)OC(F)(F)O3)S1  remaining activity (Platelet-derived growth factor receptor alpha (PDGFRA, Homo sapiens, UniProt P16234); enzyme activity, inhibitor; 0.5 µM; relative to: control): 103%

For quick reference, copied from above (study 1):
S17C: -0.0145 kcal/mol
S46H: 0.00646 kcal/mol
G24F: 1.27 kcal/mol
F35I: 0.783 kcal/mol
